Results from different studies.
A part holds a random share of what one study measured.

Sample 1
Target: Ras GTPase-activating protein-binding protein 1, full length (G3BP1, Homo sapiens, UniProt Q13283)
Sequence of UniProt Q13283 (whole entry, looked up): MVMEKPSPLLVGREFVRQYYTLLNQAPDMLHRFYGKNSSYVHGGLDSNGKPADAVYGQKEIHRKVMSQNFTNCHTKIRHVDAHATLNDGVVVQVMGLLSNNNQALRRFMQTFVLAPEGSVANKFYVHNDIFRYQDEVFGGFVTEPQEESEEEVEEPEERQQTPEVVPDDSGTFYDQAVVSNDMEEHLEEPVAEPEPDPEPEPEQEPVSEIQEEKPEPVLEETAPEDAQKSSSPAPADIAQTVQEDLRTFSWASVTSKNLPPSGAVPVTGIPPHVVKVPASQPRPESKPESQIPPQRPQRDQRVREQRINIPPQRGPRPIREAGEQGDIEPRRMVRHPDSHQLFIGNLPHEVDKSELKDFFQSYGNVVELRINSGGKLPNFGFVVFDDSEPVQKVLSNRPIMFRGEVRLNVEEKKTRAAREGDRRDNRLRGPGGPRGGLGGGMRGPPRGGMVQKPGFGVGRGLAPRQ
Technique: RNA Bind-n-Seq
Form: RNA
Sample: in vitro
Tested at: 200 nM
Setting: whole 134-nt RNA, ends assumed
With: 150 mM LiCl
Relative to: input library
Direction: higher = stronger binding
Library: 7-deaza-guanosine replaces G
Shared flanks, not repeated: GGGAGUUCUACAGUCCGACGAUC … UGGAAUUCUCGGGUGUCAAGG
`AAGUCCUGUGCUACACAUCGUAUGUACCGAAUCGGGCCCCGGGGCCCCGGCCCCGGAAAGUAUUAUGUUACGCCGUUCGGAUCUGCACUU` has a log2 enrichment of -0.92.
For `CACAGACAACACGCACCCACACAGACACAGAGGGAAGGGGUUGGGAUCGGGACAGGGUGCACAGCAGGGCGGGGUAGGACCCCAGCCCCU`, the log2 enrichment was 0.173.
The log2 enrichment of `CAAGUCCUGUGCUACACAUCGUAUGUACCGAAUCGGGGUGGGGAAAGGGGAGGGGAAAGUAUUAUGUUACGCCGUUCGGAUCUGCACUUC` is reported as -0.508.
With `CCUGUGCUACACAUCGUAUGUACCGAAUCAAACCCCCCCAAAUUUUUUUAAAUUUUUAAAAAAGUAUUAUGUUACGCCGUUCGGAUCUGC` the log2 enrichment was 1.48.
`CCUCAAGUCCUGUGCUACACAUCGUAUGUACCGAAUCGGAAAGGUUUGGAGGAAAGUAUUAUGUUACGCCGUUCGGAUCUGCACUUCCAG` has a log2 enrichment of -0.179.
`CACAGACAACACGCAAAAACACAGACACAGAGGGAAGGGGUUGGGAUGGGGACAGGGUGCACAGCAGGGCGGGGUAGGACCCCAGCCCCU` gave a log2 enrichment of 0.498.
`GCAGGAAGUAAAAACAAAGGGAAAUGCUUCGGAUAGUGGCAGGGGUGGGGGUUGCUAAGGAAAGGGUGGGAUGGGAGUGGGUAAAGAGUU` gave a log2 enrichment of -0.494.
The log2 enrichment of `AGUCCUGUGCUACACAUCGUAUGUACCGAAUCGGGGCCCCCGGCCCCCGGGCCCCCGGAAAGUAUUAUGUUACGCCGUUCGGAUCUGCAC` is reported as -1.42.

Sample 2
Target: TAR DNA-binding protein 43, full length, His tag (TARDBP, Homo sapiens, UniProt Q13148, residues 1-414)
Technique: RNA Bind-n-Seq
Form: RNA
Sample: in vitro
Tested at: 20 nM
Setting: 6-mer, flanks averaged, single round
With: 150 mM LiCl
Relative to: input library
Direction: higher = stronger binding
Under “6-mer enrichment (R)”, `GCAUUC` is recorded as 0.839.
`GUCUCU` — result for “6-mer enrichment (R)”: 0.919.
For `AGCCGG`, “6-mer enrichment (R)” read 0.915.
`CCCGUA` — result for “6-mer enrichment (R)”: 0.959.
For `UCGUUC`, “6-mer enrichment (R)” read 0.876.
Under “6-mer enrichment (R)”, `AUGACU` is recorded as 0.842.
Under “6-mer enrichment (R)”, `CAUCCG` is recorded as 0.826.
For `ACGGAA`, “6-mer enrichment (R)” read 0.864.

Mixed results
For `CCCCN(CCCC)C(=O)CN1C[C@H](c2cc(OC)c3c(c2)OCO3)[C@@H](C(=O)O)[C@@H]1CC(C)(C)CCC`, the viability was 106% (sample G normal colon organoids; CellTiter-Glo; human patient-derived organoids; 0.1 µM, 4 days; relative to: DMSO control).
`COc1ccc(-c2c(Nc3ccccn3)[nH]c3c(C4=CCCCC4)c(-c4ccccc4)nn3c2=O)cc1` — result for “AUC(tau) extrapolated share”: 0% (human, plasma; oral, 200 mg QD).
With `O=C(C1CCCCC1)N1CC(=O)N2CCc3ccccc3C2C1` (centres unmarked) the inhibition was 26.9% (Sarcocystis neurona; parasite growth; 10 µM, 96 h, first screen).
`Histone H2B type 1-C/E/F/G/I (Homo sapiens, UniProt P62807)`: interaction screen “cross-linked” (H2AC1 (Homo sapiens, UniProt Q96QV6); cross-linking MS; hits only).
